Published values collected from several papers.
Numbered parts are unrelated; each lists some results of a single study.

Set 1
Target: Replicase polyprotein 1ab, main protease (rep, Severe acute respiratory syndrome coronavirus 2, UniProt P0DTD1)
Observed: enzyme activity
Mode: inhibitor
Tested at: 20 µM
Notes: hit confirmation
`O=[N+]([O-])c1ccc(Sc2cccc[n+]2[O-])c2nonc12` has an inhibition of 111%.
For `O=C1C=CC(=O)C2=C1C1c3ccccc3C2c2ccccc21`, the inhibition was 100%.
The inhibition of `CCCCOc1ccc(CC/C=C2\SC(=O)N(CCN)C2=O)cc1` is reported as 3.8%.
The inhibition of `CN1CCN(c2cccc(Nc3nc4c(-c5ccc(S(C)(=O)=O)cc5)cccn4n3)c2)CC1` is reported as -10.3%.
For `CC1=C(/C=C/C(=C/C=C/C(C)=C/C(=O)O)c2ccc(C)cc2)C(C)(C)CCC1`, the inhibition was 12%.

Set 2
Target: Replicase polyprotein 1ab, nsp13 helicase (rep, Severe acute respiratory syndrome coronavirus 2, UniProt P0DTD1)
Mode: inhibitor
Tested at: 20 µM
For `COC(=O)CCc1ccc(OCC(O)CNC(C)C)cc1` (centres unmarked), the inhibition was -1.13%.
The inhibition of `C/C(=C\C(=O)Nc1ccccc1C(=O)O)c1ccc2ccccc2c1` is reported as 2.61%.
With `O/N=C/c1cc[n+](COC[n+]2ccc(/C=N/O)cc2)cc1` the inhibition was -0.93%.
`COc1ccc2cc(-c3nc(-c4ccc([S+](C)[O-])cc4)[nH]c3-c3ccncc3)ccc2c1` (centres unmarked) gave an inhibition of 3.64%.
`CCC[C@H](N[C@H]1CCc2cc(F)cc(F)c2C1)C(=O)Nc1cn(C(C)(C)CNCC(C)(C)C)cn1` gave an inhibition of 0.36%.
`Nc1nc(Nc2ccc(S(N)(=O)=O)cc2)nn1C(=O)c1c(F)cccc1F` gave an inhibition of -3.06%.
With `COc1cc2ncnc(Nc3ccc(F)c(Cl)c3)c2cc1NC(=O)/C=C/CN1CCCCC1` the inhibition was 3.23%.
The inhibition of `C[C@]12CCC(=O)C=C1CC[C@@H]1[C@@H]2[C@@H](O)C[C@@]2(C)[C@H]1CC[C@]2(O)C(=O)COP(=O)(O)O` is reported as 3.36%.
The inhibition of `CC[C@@H](Nc1c(Nc2cccc(C(=O)N(C)C)c2O)c(=O)c1=O)c1ccc(C)o1` is reported as 2.15%.
With `NC(=O)c1cnc2[nH]ccc2c1N[C@@H]1[C@@H]2CC3C[C@H]1C[C@@](O)(C3)C2` the inhibition was 5.07%.
For `CC1CCc2c(cc(Br)c(F)c2Br)N1C=O` (centres unmarked), the inhibition was -2.63%.
With `CC(C)(C)c1ccc(-c2nc3ccccc3[nH]2)cc1` the inhibition was 5.19%.
With `CC(C)[C@@H](C)/C=C/[C@@H](C)[C@H]1CC[C@H]2C3=CC=C4C[C@@H](O)CC[C@]4(C)[C@H]3CC[C@]12C` the inhibition was 0.52%.
The inhibition of `CCc1cc(Cl)c(OC)c(C(=O)NC[C@@H]2CCCN2CC)c1O` is reported as 6.09%.
The inhibition of `CC(C)=CCC/C(C)=C/CC/C(C)=C/CC/C(C)=C/CC1=C(C)C(=O)c2ccccc2C1=O` is reported as 6.53%.
`CN(CCc1ccc(Cl)c(Cl)c1)CCN1CCCC1` gave an inhibition of 6.98%.
With `CC(=O)O[C@]1(C(C)=O)CC[C@H]2[C@@H]3CCC4=CC(=O)CCC4=C3[C@@H](c3ccc(N(C)C)cc3)C[C@@]21C` the inhibition was 11%.
The inhibition of `O=C1OC(c2ccc(O)cc2)(c2ccc(O)cc2)c2ccccc21` is reported as 1.8%.
`CCCCOc1cc(C(=O)NCCN(CC)CC)c2ccccc2n1` has an inhibition of -4.19%.
`COc1oc(=O)c2cc(N)ccc2c1Cl` gave an inhibition of 4.54%.
The inhibition of `CN1[C@@H]2C[C@@H](OC(=O)[C@H](CO)c3ccccc3)C[C@H]1[C@@H]1O[C@@H]12` is reported as 5.16%.
For `OC[C@@H](O)[C@@H](O)[C@H](O)[C@H](O)CO`, the inhibition was 10.3%.
For `O=C(c1cn(Cc2cncn2Cc2ccc(Br)cc2)cc1-c1cccc2ccccc12)N1CCOCC1`, the inhibition was 6.99%.
The inhibition of `Cn1nc(-c2ccc(C(F)(F)F)cc2)nc2c(=O)n(C)c(=O)nc1-2` is reported as 11.3%.
`N#Cc1c(N)nc(SCC(N)=O)c(C#N)c1-c1ccc(OCC2CC2)cc1` has an inhibition of -0.06%.

Set 3
Cell line: HEK-293T/ACE2
Tested at: concentration not given
Time: 16 (unit not given)
Baseline: vehicle
`CCCN(CCC)CCc1cccc2c1CC(=O)N2` gave a viability of 102%.
With `C[C@@H](O[C@H]1OCCN(Cc2n[nH]c(=O)[nH]2)[C@H]1c1ccc(F)cc1)c1cc(C(F)(F)F)cc(C(F)(F)F)c1` the viability was 98.7%.
`CC[C@]1(O)C[C@@H]2CN(CCc3c([nH]c4ccccc34)[C@@](C(=O)OC)(c3cc4c(cc3OC)N(C)[C@H]3[C@@](O)(C(=O)OC)[C@H](OC(C)=O)[C@]5(CC)C=CCN6CC[C@]43[C@@H]65)C2)C1` has a viability of -0.0317%.
With `CCCOc1ccc(C(=O)OCCN(CC)CC)cc1N` the viability was 101%.

Set 4
Target: Interferon regulatory factor 3, full length, phosphomimetic (IRF3, Homo sapiens, UniProt Q14653, residues 1-427, S386D/S396D/S398D/S402D/T404D/S405D)
Method: protein-binding microarray
Form: double-stranded DNA, one strand shown
Sample: in vitro
Tested at: 2540 nM top
Notes: 60-bp whole probe
With: salmon DNA 0.4 mg/ml
Baseline: random background probes
Direction: higher = stronger binding
Shared flanks, not repeated: GCCTAGCAC … GTCTTGATTCGCTTGACGCTGCTG
Target sequence (chain): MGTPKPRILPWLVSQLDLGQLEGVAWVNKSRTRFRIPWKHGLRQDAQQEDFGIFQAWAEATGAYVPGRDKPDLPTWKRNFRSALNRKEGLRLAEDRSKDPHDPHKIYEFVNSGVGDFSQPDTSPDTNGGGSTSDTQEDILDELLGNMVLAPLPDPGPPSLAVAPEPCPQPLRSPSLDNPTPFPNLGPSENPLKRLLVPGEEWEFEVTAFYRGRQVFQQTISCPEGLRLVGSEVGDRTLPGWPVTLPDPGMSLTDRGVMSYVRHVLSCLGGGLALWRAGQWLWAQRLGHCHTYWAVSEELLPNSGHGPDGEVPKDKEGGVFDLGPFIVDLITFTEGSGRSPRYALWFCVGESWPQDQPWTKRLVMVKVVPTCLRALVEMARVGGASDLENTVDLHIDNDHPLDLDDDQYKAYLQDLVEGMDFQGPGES
For `TTAGATATCGGGACTGGTTTAGTGCTA`, “fitted relative affinity” read -0.0568 z-score.
Under “fitted relative affinity”, `TTAGATTTCAGTTCCTATTAGTGCTAG` is recorded as 3.3 z-score.
`TTAGGACTGGGACTTGGTTAGTGCTAG` — result for “fitted relative affinity”: -0.831 z-score.
Under “fitted relative affinity”, `TCATATATTCATATATAACTGTGCTAG` is recorded as 0.984 z-score.
For `GGGTCTCTTGTTCTCTCTGGGTGCTAG`, “fitted relative affinity” read -0.0661 z-score.
Under “fitted relative affinity”, `CGACATTTTTATTTGCCTTAGTGCTAG` is recorded as 0.72 z-score.
For `TTACGTTTCGGGTATCGGTTAGTGCTA`, “fitted relative affinity” read 3.61 z-score.
For `GACGGTTTCAGTTTCGAGACGTGCTAG`, “fitted relative affinity” read 6.67 z-score.

Set 5
Target: RNA binding protein fox-1 homolog 2, RRM domain, GST-SBP tag (RBFOX2, Homo sapiens, UniProt O43251-10, residues 100-194)
Method: RNA Bind-n-Seq
Form: RNA
Sample: in vitro
Tested at: 365 nM
Notes: natural RNA segment, single round, ends assumed
Baseline: no-protein control
Direction: higher = stronger binding
Residues (chain): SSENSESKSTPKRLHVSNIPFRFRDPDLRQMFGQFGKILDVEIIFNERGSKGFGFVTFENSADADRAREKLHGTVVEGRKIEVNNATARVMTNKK
`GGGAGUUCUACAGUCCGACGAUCAAAUAGGACCGAACAAAGCUACAUGAACACACCUGCUGUAGAGUUGAGGGGACCUCUCACCUGGUCACAUGAGGUUGAGGAGGGCCCAGUGUCCUGGCAGAUGAUCAGUAUGGAAUUCUCGGGUGCCAA`: “RBNS enrichment (R)” 0.45.
Under “RBNS enrichment (R)”, `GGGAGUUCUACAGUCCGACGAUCUUCUACUUUCAUUUUGUAUUUCUGGUCUGUGAAAAUGAUUUAAUAAAGGGAACUGACUUUGGAAACCUGUCCUCAUGCUUUCUUUGUAGCCUUGGUGUGUUGCUCCCACUUGGAAUUCUCGGGUGCCAA` is recorded as 1.22.
`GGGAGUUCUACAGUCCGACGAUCUAGGCCAGGCUGGCUCCUGGCUGUGAAGGAACUUCCGGUCCCCAAGAAGCCUUGAAGACUGGACAAGGGAGGACAGGGUGGAGCAGGGAUAGCCGUGGCUUCAUUUAUCGUGGAAUUCUCGGGUGCCAA`: “RBNS enrichment (R)” 0.346.
Under “RBNS enrichment (R)”, `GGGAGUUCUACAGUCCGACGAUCGUACUCCCAAACUGACAAUUUUACCUAUUCUGAAAAAGACAUAAAACAGAAUUUGGUAGCACUUACCUCUACAGACACCUGCUAAUAAAUUAUUUUCUGUCAAAAGAAAAUGGAAUUCUCGGGUGCCAA` is recorded as 0.245.
Under “RBNS enrichment (R)”, `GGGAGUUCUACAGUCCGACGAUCUUUUUCUACCAACUCUCCAGAGCGUGAGUAUAGGAGUGCCAUGAGCUUUUUAGUCAGCAGUUUUGUAAACUCUGUAUAUAAAAUCAUUAACCACACAUUGUGGGUGAUGGUGGAAUUCUCGGGUGCCAA` is recorded as 0.397.
Under “RBNS enrichment (R)”, `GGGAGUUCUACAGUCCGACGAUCUCAACUGCUUUACUAAGGAGCAAUGUUGUCCUGCGCCGGCACACUCAAGAUGUAUCUGAGUAGCUGCCUGAAAGCAGAUGACACUGCAGUCAGGAGGUGAGAGGCUGAGGUGGAAUUCUCGGGUGCCAA` is recorded as 0.238.
Under “RBNS enrichment (R)”, `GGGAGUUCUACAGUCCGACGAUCCAUAAAAACAGAAAGAACAACGCCCUGGAGCCAAUCUUCAAGAAAGGAAUUUCCAAAGGAUAAUAUUUUUCUAAUAAAUGCGGCUGCAACCUCCUGUGCAUUUAAUUAAAUGGAAUUCUCGGGUGCCAA` is recorded as 1.17.
`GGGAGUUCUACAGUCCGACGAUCGGAGGCUCCCGAGGGGAAGGGGCGGUGCCCACACCGGGGACAGGCCGCAGCUCCAUUUUCUUAUUGCGCUGCUACCGUUGACUUCCAGGCACGGUUUGGAAAUAUUCACAUGGAAUUCUCGGGUGCCAA` — result for “RBNS enrichment (R)”: 4.07.

For quick reference, copied from above (set 1):
`O=[N+]([O-])c1ccc(Sc2cccc[n+]2[O-])c2nonc12` has an inhibition of 111%.
For `O=C1C=CC(=O)C2=C1C1c3ccccc3C2c2ccccc21`, the inhibition was 100%.
The inhibition of `CCCCOc1ccc(CC/C=C2\SC(=O)N(CCN)C2=O)cc1` is reported as 3.8%.
The inhibition of `CN1CCN(c2cccc(Nc3nc4c(-c5ccc(S(C)(=O)=O)cc5)cccn4n3)c2)CC1` is reported as -10.3%.
For `CC1=C(/C=C/C(=C/C=C/C(C)=C/C(=O)O)c2ccc(C)cc2)C(C)(C)CCC1`, the inhibition was 12%.
